Measurements pooled from the literature.
Compare with care: the assays were run in different laboratories. ± marks the error that the study gave. ≈ marks a conversion by molar mass, not a printed value.
Organism: Trypanosoma brucei

| SMILES | test | system | setting | how to read | measurement | value |
| --- | --- | --- | --- | --- | --- | --- |
| COC(=O)c1[nH]c(C(=O)OC)c2c1c1c3cc(Cl)ccc3[nH]c1c1[nH]c3ccc(Cl)cc3c12 | – | Hep G2 | 72 h | baseline: Hep G2 over T. brucei | selectivity ratio | ~12 |
| OC[C@H]1O[C@@H](O[C@H]2[C@H](O)[C@@H](O)[C@H](SSCc3ccc(CSS[C@@H]4O[C@H](CO)[C@@H](O[C@@H]5O[C@H](CO)[C@H](O)[C@H](O)[C@H]5O)[C@H](O)[C@H]4O)c4ccccc34)O[C@@H]2CO)[C@H](O)[C@@H](O)[C@H]1O | parasite growth, flow cytometry | – | 5 µM, 24 h | – | viability | 91.9% |
| Cc1nn(-c2ccccc2)nc1CNS(=O)(=O)c1cccs1 | parasite growth | – | – | – | EC50 | 32 µM |
| CN(C(=O)Cc1ccc(Cl)c(Cl)c1)C1COCC1N1CCCC1 (centres unmarked) | parasite growth | – | – | – | EC50 | 16.6 µM |
| CC(C)=CCC/C(C)=C/CC/C(C)=C/CNCCOC1C2CC3CC(C2)CC1C3 (centres unmarked) | – | bloodstream form | 72 h | – | IC50 | 0.75 ± 0.1 µg/mL (≈ 1.88 µM) |
| CN(C(=O)Cc1ccc(Cl)c(Cl)c1)[C@@H](CN1CCCC1)c1ccccc1 | parasite growth | – | 72 h | – | EC50 | 5.4 µM |
| Cc1ccc(-c2nc3c(=O)n(C)c(=O)nc-3n(C)n2)cc1 | parasite growth, resazurin | – | 73 h | – | EC50 | 1.22 µM |
| C[C@H](Nc1c(-c2c(F)cc(OCCCN(C)C)cc2F)c(Cl)nc2ncnn12)C(F)(F)F | parasite growth, SYBR Green | – | 72 h | – | EC50 | 0.146 µM |
| CC(=O)OC[C@H]1O[C@@H]([Se][Se][C@@H]2O[C@H](COC(C)=O)[C@H](OC(C)=O)[C@H](OC(C)=O)[C@H]2OC(C)=O)[C@H](OC(C)=O)[C@@H](OC(C)=O)[C@H]1OC(C)=O | parasite growth, flow cytometry | – | 5 µM, 24 h | – | viability | 3.3% |
| C=CC(C)(C)c1c(O)cc2c(c1O)C(=O)CC(c1ccccc1)O2 (centres unmarked) | resazurin viability | multidrug-resistant B48 | – | baseline: B48 over s427 wild type | resistance factor | 1.23 |
| OC[C@H]1O[C@@H]([Se][Se][C@@H]2O[C@H](CO)[C@H](O)[C@H](O)[C@H]2O)[C@H](O)[C@@H](O)[C@H]1O | parasite growth, flow cytometry | – | 5 µM, 24 h | – | viability | 96.4% |
| O=C(Cc1ccc(Cl)c(Cl)c1)N(Cc1ccccc1)[C@@H]1CCCC[C@H]1N1CCCC1 | parasite growth | – | – | – | EC50 | 2.4 µM |
| OC[C@H]1O[C@@H]([Se]Cc2ccc(C[Se][C@@H]3O[C@H](CO)[C@H](O)[C@H](O)[C@H]3O)cc2)[C@H](O)[C@@H](O)[C@H]1O | parasite growth, flow cytometry | – | 5 µM, 24 h | – | viability | 100% |
| O=C(Cc1ccc(Cl)c(Cl)c1)N1CCCCC1CN1CCCC1 (centres unmarked) | parasite growth | – | 72 h | – | EC50 | 9.9 µM |

Some of these lines once more:
| SMILES | test | system | setting | how to read | measurement | value |
| --- | --- | --- | --- | --- | --- | --- |
| Cc1ccc(-c2nc3c(=O)n(C)c(=O)nc-3n(C)n2)cc1 | parasite growth, resazurin | – | 73 h | – | EC50 | 1.22 µM |
